# Measured values of several laboratories.
# Numbered parts are unrelated; each lists some results of a single study. Positions count from the first letter of the parent shown.
# Sequence of UniProt P68400 (whole entry, looked up): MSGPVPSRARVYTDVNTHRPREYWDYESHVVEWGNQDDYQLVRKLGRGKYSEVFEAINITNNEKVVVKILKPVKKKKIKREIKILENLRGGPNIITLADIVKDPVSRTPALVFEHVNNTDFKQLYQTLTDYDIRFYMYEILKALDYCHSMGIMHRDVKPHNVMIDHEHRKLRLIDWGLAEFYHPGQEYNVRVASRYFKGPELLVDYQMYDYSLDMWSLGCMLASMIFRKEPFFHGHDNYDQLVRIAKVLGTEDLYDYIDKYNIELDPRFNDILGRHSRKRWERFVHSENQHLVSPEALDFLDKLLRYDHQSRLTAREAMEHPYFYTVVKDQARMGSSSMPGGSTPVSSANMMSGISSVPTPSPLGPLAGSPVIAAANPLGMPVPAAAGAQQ

# Block 1
# Target: CCNB1, cyclin fold, Cln2 fusion (human)
# Method: yeast growth competition, sequencing
# Matrix: yeast
# Setting: strong parent motif
# Relative to: not given
# Reading: higher = stronger binding
# Starting sequence: DBF4 docking peptide (human); DDIVSKLVFDFVE; partner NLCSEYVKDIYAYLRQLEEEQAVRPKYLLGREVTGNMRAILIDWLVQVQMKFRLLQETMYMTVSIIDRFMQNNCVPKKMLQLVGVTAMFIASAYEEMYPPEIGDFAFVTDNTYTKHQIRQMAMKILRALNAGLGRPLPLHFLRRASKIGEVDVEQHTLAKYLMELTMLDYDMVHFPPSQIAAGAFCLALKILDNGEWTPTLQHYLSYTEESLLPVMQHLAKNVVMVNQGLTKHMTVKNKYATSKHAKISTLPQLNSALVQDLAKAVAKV
Change,normalised enrichment score
V4A,0.487
D2A,1.58
D10A,0.658
F11A,1.47
V8A,0.167
K6A,0.285
I3A,0.903

# Block 2
# Target: CRIPT, C-terminal peptide
# Method: DHFR complementation, deep sequencing
# Matrix: yeast
# Setting: single substitutions, model-inferred values
# Relative to: wild type
# Reading: higher = weaker binding
# Starting sequence: ERBIN, PDZ domain 1 (human); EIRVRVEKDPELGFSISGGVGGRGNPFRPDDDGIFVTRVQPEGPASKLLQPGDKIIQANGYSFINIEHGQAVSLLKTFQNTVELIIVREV; partner TKNYKQTSV
Change,binding free energy change
E83H,0.281 kcal/mol
F35M,1.2 kcal/mol
Q57I,0.103 kcal/mol
F63T,0.281 kcal/mol
P10N,-0.374 kcal/mol
G22T,-0.204 kcal/mol
S15T,-0.17 kcal/mol
E7H,-0.0377 kcal/mol

# Block 3
# Target: Probable WRKY transcription factor 33, N-terminal DNA-binding domain (WRKY33, Arabidopsis thaliana, UniProt Q8S8P5, residues 169-264)
# Method: DNA-protein interaction ELISA
# Form: double-stranded DNA, one strand shown
# Matrix: in vitro, bacterial lysate
# Concentration: not given
# Setting: whole dsDNA probe, crude lysate protein
# Relative to: highest signal in screen
# Reading: higher = stronger binding
# Target sequence (chain): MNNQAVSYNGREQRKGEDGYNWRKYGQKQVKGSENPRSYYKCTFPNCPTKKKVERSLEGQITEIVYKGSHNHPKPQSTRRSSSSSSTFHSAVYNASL
Sequence,relative absorbance
AAAAAAGCGCGAATTCTAGAACTATAAAAA,28.8 % of maximum
AAAAAATTCACTTTTACCTTTGTGTTAAAA,23.1 % of maximum
AAAAAATATGTAGCTGCCGTTACGCTAAAA,20.7 % of maximum
AAAAAATCGGTACGCACCCCGGACTCAAAA,21.7 % of maximum
AAAAAATTCCTGTCCGCTCTCGCTCCAAAA,23.3 % of maximum
AAAAAACGGGATTCGAAACTTTTTGTAAAA,19.7 % of maximum
AAAAAAACTTTCTATTCTGGATAAGTAAAA,17.4 % of maximum
AAAAAATGGAAAGACCTATACCGGTCAAAA,26.4 % of maximum

# Further values, each from its own experiment
SMILES,target,effect on,mode,concentration,relative to,measurement,value
CN1CCN(c2ccc3nc(-c4c(N)c5c(F)cccc5[nH]c4=O)[nH]c3c2)CC1,"Casein kinase II subunit alpha (CSNK2A1, Homo sapiens, UniProt P68400)",enzyme activity,inhibitor,0.5 µM,control,remaining activity,114%

# Excerpt of the above (block 1):
Change,normalised enrichment score
V8A,0.167
K6A,0.285
I3A,0.903
